Published values gathered from unrelated publications.
Each line is one published result; not all experiments were run side by side. “And” joins repeats or separate records; there may be more than shown. Numbers after ± are the reported error. In brackets after ≈: the same amount, converted by molar mass.

Compound | tested on | assay | system | setting | how to read | measurement | value
C[C@H]1O[C@@H](O[C@H]2CC[C@@]3(C)[C@@H](CC[C@]4(C)[C@@H]3C=C[C@]35OC[C@@]6(CCC(C)(C)C[C@H]63)[C@@H](O)C[C@]54C)[C@]2(C)CO)[C@H](O)[C@@H](O[C@@H]2O[C@H](CO)[C@@H](O)[C@H](O)[C@H]2O)[C@H]1O | – | measured: FAS | chronic-plus-binge ethanol-fed mice, AAV8-TBG-Null, liver | dose not given, high dose, unit not given | relative to: AAV8-TBG-Null ethanol group | mRNA level | 0.88 and 0.71 and 0.76 and 0.96 and 0.77 and 0.89
c1cncc([C@@H]2CCCN2)c1 | – | drug discrimination acquisition | drug-naive rat | 5 mg/kg, versus beta-nicotine | – | drug-lever responding | 33%
CCCCC/C=C\C/C=C\C/C=C\Cc1ccccc1CCCC(=O)N[C@H](C)CO | – | mechanical hypersensitivity, electronic von Frey | mouse, CFA inflammatory pain model, contralateral non-inflamed paw | ip, 10 mg/kg | relative to: vehicle | paw withdrawal threshold | no effect
COc1cc(Br)cc(Br)c1Oc1cc(Br)cc(Br)c1O | – | sulfonation | human liver cytosol | – | – | Vmax/Km | 37.3 ± 2.14 µL/min/mg
NC(=O)c1cccc(-c2cc(OC(=O)NC3CCCCC3)ccc2O)c1 | – | – | mouse carrageenan inflammation | oral, 0.1 mg/kg | – | paw oedema and hyperalgesia | no effect
C[C@]1(CO)Cc2ncn(-c3ccc(C#N)c(Cl)c3)c2C(=O)O1 | – | – | human | 2 mg single dose | – | urinary sodium excretion Ae(0-24h) | 197 mmol
CN1CCN(S(=O)(=O)c2cc([N+](=O)[O-])ccc2N(CCOS(C)(=O)=O)CCOS(C)(=O)=O)CC1 | – | – | NSG mice, sample BH PDX | intraperitoneal, 25 mg/kg weekly x3 | relative to: vehicle | EFS delay (T-C) | 51.9 days
N=C(N)NCCC[C@H](NC(=O)CCCCCNC(=O)[C@H](CCCNC(=N)N)NC(=O)[C@H](CCCNC(=N)N)NC(=O)CCCCCNC(=O)[C@H](CCCNC(=N)N)NC(=O)[C@H](CCCNC(=N)N)NC(=O)CCCCCNC(=O)[C@H](CCCNC(=N)N)NC(=O)[C@H](CCCNC(=N)N)NC(=O)CCCCCNC(=O)[C@@H](N)CCCNC(=N)N)C(=O)NCCCCCC(=O)NCCC(=O)O | – | broth microdilution | 168, Mueller-Hinton broth | 16 to 18 h, 37 °C | – | MIC | 12 µM (≈ 22.9 µg/mL)
Cc1cn(-c2cc(NC(=O)c3ccc(C)c(Nc4nccc(-c5cccnc5)n4)c3)cc(C(F)(F)F)c2)cn1 | – | – | human | dose not given, between 12 and 6 months, unit not given | relative to: placebo | ADAS-Cog change difference | 0.67
Clc1cc2c(cc1Cl)Oc1cc(Cl)c(Cl)cc1O2 | – | – | female Sprague-Dawley rat, liver | dose not given | relative to: vehicle | N-acetyl-LTE4 level | 2.1 fold
CC(C)CN1CCc2ccc(Br)cc21 | Plasmodium falciparum | – | Dd2 | – | – | IC50 | 10 µM
CC[C@H](C)[C@@H]1NC(=O)[C@@H]2CCCN2C(=O)[C@H](CC(C)C)NC(=O)[C@H](CC(C)C)NC(=O)CNC(=O)[C@@H](NC(=O)[C@@H](NC(=O)[C@H](CC(=O)O)NC(=O)CNC(=O)[C@@H](NC(=O)[C@H](C)NC(=O)CNC(=O)[C@H](CCCCN)NC(=O)[C@H](CC(C)C)NC(=O)[C@H](CC(C)C)NC(=O)[C@H](CCCCN)NC(=O)CNC(=O)[C@@H](NC(=O)[C@@H](N)CC(C)C)C(C)C)C(C)C)C(C)C)CSSC[C@@H](C(=O)O)NC1=O | – | RNA-seq, measured: Slc15a3 | mouse, traumatic brain injury model, frontal cortex and hippocampus | dose not given | relative to: TBI alone | log2 fold change | -2.61
C[N+](C)(C)CCOP(=O)(O)OP(=O)([O-])OC[C@H]1O[C@@H](n2ccc(N)nc2=O)[C@H](O)[C@@H]1O | – | binding, MIDAS equilibrium dialysis LC-MS | A2AR-BRIL thermostabilized | concentration not given | relative to: no-protein control | log2 fold change | -0.223
O=S(=O)(NCCNC/C=C/c1ccc(Br)cc1)c1cccc2cnccc12 | – | – | mouse zygotes | 20 µM, 96 h post-hCG | – | embryos reaching 4-cell | 5.26%
CCCCC1(CCCC)CN(c2ccccc2)c2cc(SC)c(OCC(=O)N[C@@H](C(=O)NCC(=O)O)c3ccccc3)cc2S(=O)(=O)C1 | – | measured: LDL cholesterol | human, serum | 15 mg once daily, day 9 | – | serum LDL-C | 79.5 mg/dL
CC[C@H](C)[C@@H]1NC(=O)[C@H](Cc2ccc(O)cc2)NC(=O)[C@H](CC(=O)O)NC(=O)CCc2cccc3c2Oc2c(cccc2-3)CCNC(=O)[C@H](CC(=O)O)NC(=O)[C@H](CC(=O)O)NC(=O)[C@H](CCCCN)NC1=O | – | – | DBA/1 mice, collagen-induced arthritis | intravenous, 1 mg/kg, 5 doses every other day, 22 days | relative to: untreated control | arthritis score | decreased
Cc1nc(Nc2ccc(CC(=O)O)cc2)nc(Nc2ccc(F)c(C(F)(F)F)c2)c1C | – | – | mice, chronic ethanol plus binge, liver | intraperitoneal, 0.3 mg/kg daily, ethanol diet 4 weeks, dosed last two | relative to: vehicle | Sirius Red staining | decreased
NC(=NCc1ccccc1)NC(=O)c1nc(Cl)c(N)nc1N | Plasmodium falciparum | – | 7G8 | – | – | IC50 | 2 µM
